Published values gathered from unrelated publications.
Each numbered part is a random draw from the data of one study; scales do not carry over between parts.
UniProt Q04759, sequence (whole entry, looked up): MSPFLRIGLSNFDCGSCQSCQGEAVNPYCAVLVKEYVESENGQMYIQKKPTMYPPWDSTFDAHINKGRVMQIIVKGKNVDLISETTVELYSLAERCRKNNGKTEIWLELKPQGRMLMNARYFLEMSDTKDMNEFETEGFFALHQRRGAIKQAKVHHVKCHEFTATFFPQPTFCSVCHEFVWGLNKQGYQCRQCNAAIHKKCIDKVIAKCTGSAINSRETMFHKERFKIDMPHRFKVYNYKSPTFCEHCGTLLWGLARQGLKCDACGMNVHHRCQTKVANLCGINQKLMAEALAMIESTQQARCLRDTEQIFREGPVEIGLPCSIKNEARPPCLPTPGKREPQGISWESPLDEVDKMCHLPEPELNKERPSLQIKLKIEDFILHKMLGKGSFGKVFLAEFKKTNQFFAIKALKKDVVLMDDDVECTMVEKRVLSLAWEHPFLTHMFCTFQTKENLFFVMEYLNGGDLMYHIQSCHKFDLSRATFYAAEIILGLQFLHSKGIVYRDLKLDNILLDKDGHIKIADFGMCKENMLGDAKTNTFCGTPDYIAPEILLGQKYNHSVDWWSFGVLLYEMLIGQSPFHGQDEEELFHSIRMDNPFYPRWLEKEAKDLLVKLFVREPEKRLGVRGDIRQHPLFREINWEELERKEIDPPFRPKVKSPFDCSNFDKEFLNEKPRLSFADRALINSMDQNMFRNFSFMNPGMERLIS
UniProt P31749, sequence (whole entry, looked up): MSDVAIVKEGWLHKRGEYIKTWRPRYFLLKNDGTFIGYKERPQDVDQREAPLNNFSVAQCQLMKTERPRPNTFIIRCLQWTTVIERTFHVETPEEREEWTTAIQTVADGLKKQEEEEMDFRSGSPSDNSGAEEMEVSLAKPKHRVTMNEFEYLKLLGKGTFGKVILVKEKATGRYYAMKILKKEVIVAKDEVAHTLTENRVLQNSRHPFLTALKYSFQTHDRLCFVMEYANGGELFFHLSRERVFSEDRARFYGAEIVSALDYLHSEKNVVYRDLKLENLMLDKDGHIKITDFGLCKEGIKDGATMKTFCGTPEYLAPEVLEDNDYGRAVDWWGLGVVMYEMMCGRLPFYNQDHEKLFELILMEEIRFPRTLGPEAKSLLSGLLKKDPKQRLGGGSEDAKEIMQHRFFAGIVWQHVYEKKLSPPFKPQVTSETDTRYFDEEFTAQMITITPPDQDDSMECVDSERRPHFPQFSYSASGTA
UniProt Q9Y2H1, sequence (whole entry, looked up): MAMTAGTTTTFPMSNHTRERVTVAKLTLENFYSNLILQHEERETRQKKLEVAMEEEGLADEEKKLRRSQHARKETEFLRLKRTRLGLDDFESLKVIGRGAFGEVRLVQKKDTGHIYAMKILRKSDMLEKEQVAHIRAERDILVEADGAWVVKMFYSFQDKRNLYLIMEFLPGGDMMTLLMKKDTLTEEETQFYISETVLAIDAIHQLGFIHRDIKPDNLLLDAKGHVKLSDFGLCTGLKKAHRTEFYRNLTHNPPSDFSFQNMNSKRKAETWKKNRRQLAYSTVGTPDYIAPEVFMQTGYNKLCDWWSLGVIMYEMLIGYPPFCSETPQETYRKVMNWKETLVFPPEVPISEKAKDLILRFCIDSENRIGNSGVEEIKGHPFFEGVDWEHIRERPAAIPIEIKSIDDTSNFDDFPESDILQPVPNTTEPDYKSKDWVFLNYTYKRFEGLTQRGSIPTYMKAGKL
UniProt P23458, sequence (whole entry, looked up): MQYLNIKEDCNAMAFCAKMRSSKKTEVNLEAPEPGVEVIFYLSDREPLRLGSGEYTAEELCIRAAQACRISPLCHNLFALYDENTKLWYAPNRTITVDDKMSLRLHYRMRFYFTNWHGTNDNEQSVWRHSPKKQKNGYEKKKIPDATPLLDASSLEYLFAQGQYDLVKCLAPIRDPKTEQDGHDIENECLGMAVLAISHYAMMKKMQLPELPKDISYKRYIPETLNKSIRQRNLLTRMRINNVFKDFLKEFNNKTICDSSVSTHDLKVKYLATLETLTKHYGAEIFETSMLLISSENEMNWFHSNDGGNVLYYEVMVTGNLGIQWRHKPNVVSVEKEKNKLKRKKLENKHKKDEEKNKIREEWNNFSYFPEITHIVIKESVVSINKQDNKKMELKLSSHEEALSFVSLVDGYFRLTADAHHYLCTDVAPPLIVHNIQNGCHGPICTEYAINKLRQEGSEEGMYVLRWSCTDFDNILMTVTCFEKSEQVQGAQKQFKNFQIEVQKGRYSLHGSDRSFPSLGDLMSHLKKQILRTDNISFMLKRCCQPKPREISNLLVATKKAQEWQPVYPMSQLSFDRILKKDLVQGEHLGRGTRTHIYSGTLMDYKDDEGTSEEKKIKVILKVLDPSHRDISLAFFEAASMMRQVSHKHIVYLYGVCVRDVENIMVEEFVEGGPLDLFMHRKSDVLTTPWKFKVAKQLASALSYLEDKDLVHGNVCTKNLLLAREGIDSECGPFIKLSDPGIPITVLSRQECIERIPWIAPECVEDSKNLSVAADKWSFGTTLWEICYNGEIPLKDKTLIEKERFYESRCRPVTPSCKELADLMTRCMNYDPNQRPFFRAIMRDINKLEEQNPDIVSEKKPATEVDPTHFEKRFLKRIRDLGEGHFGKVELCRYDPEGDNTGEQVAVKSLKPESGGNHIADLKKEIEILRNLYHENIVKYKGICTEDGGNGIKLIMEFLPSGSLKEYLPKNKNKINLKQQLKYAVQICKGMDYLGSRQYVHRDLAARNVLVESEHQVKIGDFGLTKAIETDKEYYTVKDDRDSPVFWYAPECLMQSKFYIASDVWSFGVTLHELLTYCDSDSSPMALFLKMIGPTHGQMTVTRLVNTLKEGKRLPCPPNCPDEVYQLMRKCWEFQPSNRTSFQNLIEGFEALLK
UniProt P25098, sequence (whole entry, looked up): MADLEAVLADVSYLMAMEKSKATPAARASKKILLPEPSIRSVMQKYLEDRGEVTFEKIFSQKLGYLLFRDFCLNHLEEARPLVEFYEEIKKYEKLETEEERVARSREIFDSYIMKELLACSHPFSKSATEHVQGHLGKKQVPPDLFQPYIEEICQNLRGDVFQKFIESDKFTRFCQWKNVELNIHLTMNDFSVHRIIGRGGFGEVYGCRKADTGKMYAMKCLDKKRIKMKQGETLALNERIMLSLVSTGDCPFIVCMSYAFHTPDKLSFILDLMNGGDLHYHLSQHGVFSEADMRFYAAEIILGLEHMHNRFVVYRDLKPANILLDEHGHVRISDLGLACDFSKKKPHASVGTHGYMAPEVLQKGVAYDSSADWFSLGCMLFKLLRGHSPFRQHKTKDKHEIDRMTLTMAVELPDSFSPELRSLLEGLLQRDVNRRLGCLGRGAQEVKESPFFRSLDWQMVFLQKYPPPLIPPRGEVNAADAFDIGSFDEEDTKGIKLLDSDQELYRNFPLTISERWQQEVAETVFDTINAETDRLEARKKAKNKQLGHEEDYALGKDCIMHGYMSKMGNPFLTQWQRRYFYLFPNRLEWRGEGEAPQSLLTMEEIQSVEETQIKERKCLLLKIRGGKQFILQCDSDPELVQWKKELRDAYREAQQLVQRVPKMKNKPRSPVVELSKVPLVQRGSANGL

Block 1
Target: Ephrin type-B receptor 2 (EPHB2, Homo sapiens, UniProt P29323)
UniProt P29323, sequence (whole entry, looked up): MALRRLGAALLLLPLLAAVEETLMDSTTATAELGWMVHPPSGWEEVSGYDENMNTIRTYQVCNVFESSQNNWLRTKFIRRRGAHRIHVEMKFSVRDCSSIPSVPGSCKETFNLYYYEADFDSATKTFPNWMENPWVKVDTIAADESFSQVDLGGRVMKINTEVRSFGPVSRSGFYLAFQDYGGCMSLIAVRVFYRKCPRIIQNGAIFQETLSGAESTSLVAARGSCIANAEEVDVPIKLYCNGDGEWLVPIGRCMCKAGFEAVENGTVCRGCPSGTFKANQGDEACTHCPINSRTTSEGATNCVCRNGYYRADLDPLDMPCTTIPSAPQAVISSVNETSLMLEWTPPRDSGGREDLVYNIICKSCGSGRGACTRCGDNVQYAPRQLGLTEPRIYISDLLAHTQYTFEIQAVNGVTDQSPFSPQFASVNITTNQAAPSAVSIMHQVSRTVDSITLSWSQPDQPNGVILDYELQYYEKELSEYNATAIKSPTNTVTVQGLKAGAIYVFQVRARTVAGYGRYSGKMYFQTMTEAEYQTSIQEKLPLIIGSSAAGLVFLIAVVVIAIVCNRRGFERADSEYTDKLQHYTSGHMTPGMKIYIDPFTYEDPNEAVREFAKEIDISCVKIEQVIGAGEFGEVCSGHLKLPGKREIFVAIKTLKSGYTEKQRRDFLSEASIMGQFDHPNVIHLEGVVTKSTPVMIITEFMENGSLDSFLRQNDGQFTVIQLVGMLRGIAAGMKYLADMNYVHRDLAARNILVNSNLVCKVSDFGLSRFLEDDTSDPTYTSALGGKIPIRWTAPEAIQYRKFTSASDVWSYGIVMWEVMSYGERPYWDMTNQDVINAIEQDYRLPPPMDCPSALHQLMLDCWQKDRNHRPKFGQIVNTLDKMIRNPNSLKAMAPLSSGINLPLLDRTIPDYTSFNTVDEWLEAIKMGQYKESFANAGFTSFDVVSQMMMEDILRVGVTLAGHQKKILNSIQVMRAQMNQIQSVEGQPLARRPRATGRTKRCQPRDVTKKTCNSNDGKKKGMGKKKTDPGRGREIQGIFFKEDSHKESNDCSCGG
Effect on: enzyme activity
Mode: inhibitor
Concentration: 0.5 µM
Baseline: control
Endpoint: remaining activity
SMILES = c1ccc(-c2[nH]ncc2-c2ccnc3ccccc23)nc1; result = 103%
SMILES = CN(C)C[C@H]1CCn2c(c(C3=C(c4cn(C)c5ccccc45)C(=O)NC3=O)c3ccccc32)C1; result = 110%
SMILES = O=C1C(Cl)=C(N2C(=O)CCC2=O)C(=O)c2ccccc21; result = 98.7%
SMILES = COc1cc2ncnc(Nc3ccc(O)c(Br)c3)c2cc1OC; result = 66.1%
SMILES = CCN(CC)CCNC(=O)c1c(C)[nH]c(/C=C2\C(=O)Nc3ccc(F)cc32)c1C; result = 72.1%
SMILES = C[C@@H]1CCN(C(=O)CC#N)C[C@@H]1N(C)c1ncnc2[nH]ccc12; result = 100%
SMILES = O=C1c2ccccc2-c2n[nH]c3cccc1c23; result = 100%
SMILES = CCN(CC)CCNC(=O)c1c(C)[nH]c(/C=C2\C(=O)Nc3ccc(Cl)cc32)c1C; result = 87.5%
SMILES = CCOc1nc(NC(=O)Cc2cc(OC)ccc2OC)cc(N)c1C#N; result = 97.6%
SMILES = O=c1cc(-c2cccc3c2Sc2ccccc2S3)oc(N2CCOCC2)c1; result = 102%
SMILES = O=C(Nc1cccc(Nc2nccc(Nc3cccc(C(F)(F)F)c3)n2)c1)C1CC1; result = 97.8%
SMILES = COc1cc2ncnc(Nc3cccc(Cl)c3)c2cc1OC; result = 98.1%
SMILES = COc1cc2c(cc1OC)-c1[nH]nc(Nc3cccc(F)c3)c1C2; result = 94.8%
SMILES = CCN(CC)C(=O)c1ccc(Nc2nc(OCC3CCCCC3)c3[nH]cnc3n2)cc1; result = 93.7%
SMILES = Ic1cccc(CSc2nnc(-c3ccncc3)o2)c1; result = 87.7%
SMILES = c1ccc(-c2cnc(Nc3ccc(OCCN4CCCC4)cc3)s2)cc1; result = 75.6%
SMILES = N#Cc1c(NC(=O)c2cccc3ccccc23)sc2c1CCCC2; result = 97.5%
SMILES = Cc1cc2ncc(-c3ccccc3)nc2cc1C; result = 96.7%
SMILES = Cc1nc2cc3nc(-c4cccs4)cnc3cc2n1C; result = 101%
SMILES = Cn1nc2c3c(cccc31)C(=O)c1ccccc1-2; result = 104%
SMILES = N#C/C(=C\c1ccc(O)c(O)c1)C(=O)NCc1ccccc1; result = 99.7%
SMILES = Nc1cccc(-c2cc3c(Oc4cccc(O)c4)ncnc3[nH]2)c1; result = 40.7%
SMILES = Cc1cn(-c2cc(NC(=O)c3ccc(C)c(Nc4nccc(-c5cccnc5)n4)c3)cc(C(F)(F)F)c2)cn1; result = 1.55%
SMILES = O=C(NC(NC(=S)Nc1ccc(F)c([N+](=O)[O-])c1)C(Cl)(Cl)Cl)C(c1ccccc1)c1ccccc1 (centres unmarked); result = 101%
SMILES = CN([C@@H](Cc1ccc(OS(=O)(=O)c2cccc3cnccc23)cc1)C(=O)N1CCN(c2ccccc2)CC1)S(=O)(=O)c1cccc2cnccc12; result = 103%

Block 2
Target: Calcium/calmodulin-dependent protein kinase type II subunit alpha (CAMK2A, Homo sapiens, UniProt Q9UQM7)
UniProt Q9UQM7, sequence (whole entry, looked up): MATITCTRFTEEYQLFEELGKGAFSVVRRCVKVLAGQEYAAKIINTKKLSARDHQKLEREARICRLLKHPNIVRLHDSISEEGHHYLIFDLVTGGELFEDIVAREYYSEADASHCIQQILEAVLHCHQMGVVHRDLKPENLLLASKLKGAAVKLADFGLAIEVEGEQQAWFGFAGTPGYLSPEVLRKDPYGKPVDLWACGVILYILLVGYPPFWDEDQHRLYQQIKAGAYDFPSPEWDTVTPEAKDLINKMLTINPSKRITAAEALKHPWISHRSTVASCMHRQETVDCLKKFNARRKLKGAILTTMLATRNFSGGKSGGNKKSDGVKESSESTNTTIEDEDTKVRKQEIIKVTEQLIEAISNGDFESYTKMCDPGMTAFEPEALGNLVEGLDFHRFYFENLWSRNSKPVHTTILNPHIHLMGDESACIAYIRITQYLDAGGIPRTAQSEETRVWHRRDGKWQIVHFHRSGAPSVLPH
Effect on: enzyme activity
Mode: inhibitor
Concentration: 10 µM
Endpoint: inhibition
SMILES = O=C(O)CCCCCCCCCCCCCCCCC(=O)O; result = -16%
SMILES = CCOC(=O)COc1ccc2c(=O)cc(-c3ccccc3)oc2c1; result = -8%
SMILES = CC(C)(C)c1cc(O)cc(C(C)(C)C)c1; result = -14%
SMILES = O=C(O)CNC(=O)c1ccco1; result = 42%
SMILES = NCCCC[C@H](N[C@@H](CCc1ccccc1)C(=O)O)C(=O)N1CCC[C@H]1C(=O)O; result = -2%
SMILES = CC(=O)NCCc1cnc[nH]1; result = -9%
SMILES = CC(=O)CC[C@@H](C)O[C@@H]1O[C@@H](C)[C@H](O)C[C@H]1O; result = -4%
SMILES = CC1=CCC(=O)O1; result = -3%
SMILES = c1cncnc1; result = -16%
SMILES = COc1ccc2c(C)c3[n+](cc2c1OC)CCc1cc2c(cc1-3)OCO2; result = -16%
SMILES = O=C1c2c(O)cc(O[C@@H]3O[C@H](CO)[C@@H](O)[C@H](O)[C@H]3O)cc2O[C@H](c2ccc(O)c(O)c2)[C@H]1O; result = 28%
SMILES = CN1CC[C@@H](NC(=O)Nc2ccc(C#N)cc2)C[C@@H]1c1nc2ccccc2[nH]1; result = -6%
SMILES = CCc1cccc(C)c1O; result = 19%

Block 3
SMILES: Cc1ccc(NC(=O)c2ccnc(C(F)(F)F)c2)cc1-c1cc(OCCO)nc(N2CCOCC2)c1
Concentration: 1 µM
Endpoint: remaining binding
target = Serine/threonine-protein kinase 38 (STK38, Homo sapiens, UniProt Q15208); test = competitive binding panel, item: NDR1; scale = baseline: vehicle; result = 97%
target = Ribosomal protein S6 kinase alpha-5 (RPS6KA5, Homo sapiens, UniProt O75582); test = competitive binding scan; setting = C-terminal kinase domain 2; result = 100%
target = SRSF protein kinase 2 (SRPK2, Homo sapiens, UniProt P78362); test = competitive binding panel; scale = baseline: vehicle; result = 100%
target = Protein kinase C theta type (PRKCQ, Homo sapiens, UniProt Q04759); test = competitive binding panel; scale = baseline: vehicle; result = 99%
target = Serine/threonine-protein kinase Nek5 (NEK5, Homo sapiens, UniProt Q6P3R8); test = competitive binding panel; scale = baseline: vehicle; result = 89%
target = Ephrin type-A receptor 5 (EPHA5, Homo sapiens, UniProt P54756); test = competitive binding panel; scale = baseline: vehicle; result = 92%
target = Tyrosine-protein kinase CSK (CSK, Homo sapiens, UniProt P41240); test = competitive binding panel; scale = baseline: vehicle; result = 95%
target = Casein kinase I isoform gamma-2 (CSNK1G2, Homo sapiens, UniProt P78368); test = competitive binding panel; scale = baseline: vehicle; result = 94%
target = Serine/threonine-protein kinase 38-like (STK38L, Homo sapiens, UniProt Q9Y2H1); test = competitive binding panel, item: NDR2; scale = baseline: vehicle; result = 96%
target = Vascular endothelial growth factor receptor 1 (FLT1, Homo sapiens, UniProt P17948); test = competitive binding panel; scale = baseline: vehicle; result = 89%
target = Dual specificity mitogen-activated protein kinase kinase 6 (MAP2K6, Homo sapiens, UniProt P52564); test = competitive binding panel, item: MEK6; scale = baseline: vehicle; result = 95%
target = Myotonin-protein kinase (DMPK, Homo sapiens, UniProt Q09013); test = competitive binding panel; scale = baseline: vehicle; result = 100%
target = Receptor tyrosine-protein kinase erbB-2 (ERBB2, Homo sapiens, UniProt P04626); test = competitive binding panel; scale = baseline: vehicle; result = 72%
target = Serine/threonine-protein kinase 33 (STK33, Homo sapiens, UniProt Q9BYT3); test = competitive binding panel; scale = baseline: vehicle; result = 97%
target = RAC-alpha serine/threonine-protein kinase (AKT1, Homo sapiens, UniProt P31749); test = competitive binding panel; scale = baseline: vehicle; result = 99%
target = Mitogen-activated protein kinase kinase kinase 5 (MAP3K5, Homo sapiens, UniProt Q99683); test = competitive binding panel, item: ASK1; scale = baseline: vehicle; result = 92%
target = Interleukin-1 receptor-associated kinase 1 (IRAK1, Homo sapiens, UniProt P51617); test = competitive binding panel; scale = baseline: vehicle; result = 100%

Block 4
Structure (SMILES): Cn1nc(C(=O)NCc2ccc(C(=O)O)cc2)cc1-c1ccc2[nH]ccc2c1
Concentration: 0.1 µM
Endpoint: remaining binding
target = Citron Rho-interacting kinase (CIT, Homo sapiens, UniProt O14578); test = cell-free assay, competition with immobilised ligand; result = 59%
target = Beta-adrenergic receptor kinase 1 (GRK2, Homo sapiens, UniProt P25098); test = cell-free assay, competition with immobilised ligand; result = 98%
target = Serine/threonine-protein kinase 17B (STK17B, Homo sapiens, UniProt O94768); test = cell-free assay, competition with immobilised ligand; result = 91%
target = G protein-coupled receptor kinase 3 (GRK3, Homo sapiens, UniProt P35626); test = cell-free assay, competition with immobilised ligand; result = 81%
target = Tyrosine-protein kinase ABL1, non-phosphorylated (ABL1, Homo sapiens, UniProt P00519, T315I); test = cell-free assay, competition with immobilised ligand; result = 73%
target = Homeodomain-interacting protein kinase 3 (HIPK3, Homo sapiens, UniProt Q9H422); test = cell-free assay, competition with immobilised ligand; result = 88%
target = Serine/threonine-protein kinase Sgk2 (SGK2, Homo sapiens, UniProt Q9HBY8); test = cell-free assay, competition with immobilised ligand; result = 54%
target = RAC-alpha serine/threonine-protein kinase (AKT1, Homo sapiens, UniProt P31749); test = cell-free assay, competition with immobilised ligand; result = 100%
target = Tyrosine-protein kinase JAK1, JH2 (JAK1, Homo sapiens, UniProt P23458); test = cell-free assay, competition with immobilised ligand; result = 84%
target = Focal adhesion kinase 1 (PTK2, Homo sapiens, UniProt Q05397); test = cell-free assay, competition with immobilised ligand; result = 85%
target = Serine/threonine-protein kinase ULK2 (ULK2, Homo sapiens, UniProt Q8IYT8); test = cell-free assay, competition with immobilised ligand; result = 98%
target = 5'-AMP-activated protein kinase catalytic subunit alpha-2 (PRKAA2, Homo sapiens, UniProt P54646); test = cell-free assay, competition with immobilised ligand; result = 91%
target = Tyrosine-protein kinase ABL1, phosphorylated (ABL1, Homo sapiens, UniProt P00519, E255K); test = binding, competition with immobilised ligand; result = 65%
target = Serine/threonine-protein kinase 38-like (STK38L, Homo sapiens, UniProt Q9Y2H1); test = cell-free assay, competition with immobilised ligand; result = 99%
target = Protein kinase C theta type (PRKCQ, Homo sapiens, UniProt Q04759); test = cell-free assay, competition with immobilised ligand; result = 99%
target = Serine/threonine-protein kinase B-raf (BRAF, Homo sapiens, UniProt P15056, V600E); test = cell-free assay, competition with immobilised ligand; result = 89%
target = Discoidin domain-containing receptor 2 (DDR2, Homo sapiens, UniProt Q16832); test = cell-free assay, competition with immobilised ligand; result = 75%
target = Receptor tyrosine-protein kinase erbB-3 (ERBB3, Homo sapiens, UniProt P21860); test = cell-free assay, competition with immobilised ligand; result = 77%
target = Dual specificity mitogen-activated protein kinase kinase 3 (MAP2K3, Homo sapiens, UniProt P46734); test = cell-free assay, competition with immobilised ligand; result = 93%
target = Tyrosine-protein kinase JAK1, JH1 (JAK1, Homo sapiens, UniProt P23458); test = cell-free assay, competition with immobilised ligand; result = 93%
target = cAMP-dependent protein kinase catalytic subunit alpha (PRKACA, Homo sapiens, UniProt P17612); test = cell-free assay, competition with immobilised ligand; result = 100%
target = Dual specificity protein kinase CLK2 (CLK2, Homo sapiens, UniProt P49760); test = cell-free assay, competition with immobilised ligand; result = 100%
target = Rhodopsin kinase GRK1 (GRK1, Homo sapiens, UniProt Q15835); test = cell-free assay, competition with immobilised ligand; result = 100%
target = Ephrin type-A receptor 4 (EPHA4, Homo sapiens, UniProt P54764); test = cell-free assay, competition with immobilised ligand; result = 100%
target = Serine/threonine-protein kinase SIK1 (SIK1, Homo sapiens, UniProt P57059); test = competition binding; result = 100%

Repeated from above (block 4):
target = Tyrosine-protein kinase JAK1, JH2 (JAK1, Homo sapiens, UniProt P23458); test = cell-free assay, competition with immobilised ligand; result = 84%
target = Focal adhesion kinase 1 (PTK2, Homo sapiens, UniProt Q05397); test = cell-free assay, competition with immobilised ligand; result = 85%
target = Serine/threonine-protein kinase ULK2 (ULK2, Homo sapiens, UniProt Q8IYT8); test = cell-free assay, competition with immobilised ligand; result = 98%
target = 5'-AMP-activated protein kinase catalytic subunit alpha-2 (PRKAA2, Homo sapiens, UniProt P54646); test = cell-free assay, competition with immobilised ligand; result = 91%
target = Tyrosine-protein kinase ABL1, phosphorylated (ABL1, Homo sapiens, UniProt P00519, E255K); test = binding, competition with immobilised ligand; result = 65%
target = Serine/threonine-protein kinase 38-like (STK38L, Homo sapiens, UniProt Q9Y2H1); test = cell-free assay, competition with immobilised ligand; result = 99%
target = Protein kinase C theta type (PRKCQ, Homo sapiens, UniProt Q04759); test = cell-free assay, competition with immobilised ligand; result = 99%
target = Serine/threonine-protein kinase B-raf (BRAF, Homo sapiens, UniProt P15056, V600E); test = cell-free assay, competition with immobilised ligand; result = 89%
target = Discoidin domain-containing receptor 2 (DDR2, Homo sapiens, UniProt Q16832); test = cell-free assay, competition with immobilised ligand; result = 75%
